Measurements from different studies.
Numbered parts are unrelated; each lists some results of a single study. Substitutions count along the parent as printed.

Set 1
Target: Protein C-ets-1 (ETS1, Homo sapiens, UniProt P14921, residues 1-441, K379A, full length assumed)
Sequence of UniProt P14921 (whole entry, unmodified, looked up): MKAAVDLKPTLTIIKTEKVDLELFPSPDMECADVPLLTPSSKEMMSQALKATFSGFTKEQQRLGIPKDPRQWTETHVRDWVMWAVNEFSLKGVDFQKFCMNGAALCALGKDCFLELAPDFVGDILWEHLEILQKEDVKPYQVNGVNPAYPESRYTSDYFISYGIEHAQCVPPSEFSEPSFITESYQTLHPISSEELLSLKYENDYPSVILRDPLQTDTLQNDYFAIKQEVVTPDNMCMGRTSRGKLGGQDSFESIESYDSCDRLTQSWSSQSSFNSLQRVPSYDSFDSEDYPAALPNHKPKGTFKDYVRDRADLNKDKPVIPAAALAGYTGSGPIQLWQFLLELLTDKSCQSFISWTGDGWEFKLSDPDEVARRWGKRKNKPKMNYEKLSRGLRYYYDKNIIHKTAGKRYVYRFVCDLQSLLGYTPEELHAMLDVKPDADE
Method: protein-binding microarray
Molecule type: double-stranded DNA, one strand shown
Medium: in vitro
Tested at: not given
Notes: k-mer, scored over probes, only values ≥0.25
Direction: higher = stronger binding
Oligonucleotide | E-score
CCGACGCG | 0.282
CGTCAAAC | 0.274
CATCCGGC | 0.339
CCGGGGCC | 0.307
CCGGTCTC | 0.311
AGGGCGGG | 0.264
CAAGAACC | 0.251
CCGCACCG | 0.253

Set 2
Target: Histone acetyltransferase KAT6A, both winged helices, GST fusion (KAT6A, Homo sapiens, UniProt Q92794, residues 1-181)
Method: protein binding microarray
Molecule type: double-stranded DNA, one strand shown
Medium: in vitro
Tested at: not given
Notes: 8-mer, flanks averaged, mean of 2 arrays, mostly near background
Relative to: not given
Direction: higher = stronger binding
Target sequence (chain): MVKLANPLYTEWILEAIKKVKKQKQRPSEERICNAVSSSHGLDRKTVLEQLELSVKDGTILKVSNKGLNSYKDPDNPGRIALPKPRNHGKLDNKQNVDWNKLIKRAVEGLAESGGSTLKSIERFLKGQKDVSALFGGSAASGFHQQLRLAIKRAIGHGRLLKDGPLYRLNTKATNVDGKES
Oligonucleotide | E-score
TATCTTGA | -0.117
CTATTACC | 0.0133
TAATGACA | -0.116
AAGATGTA | -0.0734
TAGTGATA | -0.175
CGCATATC | 0.216
TAGGAATA | -0.261

Set 3
Target: CCNE2, cyclin fold, Cln2 fusion (human)
Method: yeast growth competition, sequencing
Medium: yeast
Notes: strong parent motif
Relative to: not given
Direction: higher = stronger binding
Starting sequence: PKN2 docking peptide (human); VSAVRKLDFSDTM; partner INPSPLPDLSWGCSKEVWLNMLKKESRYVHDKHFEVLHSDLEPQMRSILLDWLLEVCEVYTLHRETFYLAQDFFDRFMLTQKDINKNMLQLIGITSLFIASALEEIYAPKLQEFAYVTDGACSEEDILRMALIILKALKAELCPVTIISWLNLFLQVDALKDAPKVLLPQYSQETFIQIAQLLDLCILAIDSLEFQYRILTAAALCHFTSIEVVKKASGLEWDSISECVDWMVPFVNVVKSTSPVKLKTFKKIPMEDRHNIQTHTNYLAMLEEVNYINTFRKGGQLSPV
Substitution | normalised enrichment score
D8Y | 3.69
D8S | 3.84
S2T | 4.51
F9A | -0.0994
T12A | 4.89

Other studies, line by line
Substance | target | assay | test system | conditions | how to read | quantity | result
PhoQ, residues 284 288 289 292 302 303 SCCLKL | PhoP, residues 12 14 15 18 19 ICWRQ (Escherichia coli, UniProt P23836) | Sort-seq, measured: YFP reporter | E. coli | PhoQ-PhoP variant library, added: 10 µM Mg2+ | relative to: high Mg2+ state, higher = stronger signaling | fold induction | 3.17

Excerpt of the above (set 2):
Oligonucleotide | E-score
TAGTGATA | -0.175
CGCATATC | 0.216
